Results collected from several papers.
Compare with care: the assays were run in different laboratories. Several values in a cell are separate wells, animals, samples, runs or records. ± marks the error that the study gave. Values after ≈ are worked out from the molar mass of the structure shown.
UCHL1: Ubiquitin carboxyl-terminal hydrolase isozyme L1 (UCHL1, Homo sapiens, UniProt P09936)
Chain of UniProt P09936 (whole entry, looked up): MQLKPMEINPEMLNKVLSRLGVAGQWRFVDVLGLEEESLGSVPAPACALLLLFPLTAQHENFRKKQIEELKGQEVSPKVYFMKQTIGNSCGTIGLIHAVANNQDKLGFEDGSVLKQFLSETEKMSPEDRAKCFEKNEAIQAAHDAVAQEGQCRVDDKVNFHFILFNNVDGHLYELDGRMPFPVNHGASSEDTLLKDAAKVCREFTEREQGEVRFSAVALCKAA

Structure (SMILES) | tested on | assay | system | conditions | scale | quantity | value
CCCCC[C@H](O)/C=C/[C@@H]1[C@@H](C/C=C\CCCC(=O)O)[C@@H](O)C[C@H]1O | Leishmania martiniquensis | intracellular amastigote growth, alamarBlue | THP-1-derived macrophages | 48 h |  | IC50 | 19.4 ± 6.25 µM
COc1cc(C#C[C@H](O)CC(C)C)ccc1O | Pseudomonas aeruginosa | static biofilm | PA14 | 10 µM, 24 h | baseline: DMSO | biofilm formation | 72%
Oc1ccc2c(c1)OC[C@]1(O)Cc3cc(O)c(O)cc3[C@H]21 | Toxoplasma gondii | parasite growth, luciferase reporter | HFF, tachyzoite | 72 h |  | EC50 | 30.4 µM
CC(C)n1ncc2c(C(=O)NCC3(C)CNC3)cc(C3CC3)nc21 | Enterovirus D68 | cytopathic effect | RD, US/MO/14-18947 | 50 nM |  | cell protection | -0.133% and 0% and -0.398%
OC[C@H]1O[C@@H](O[C@@H]2[C@@H](O)[C@H](O[C@@H]3[C@@H](O)[C@H](O[C@H]4[C@H](O)[C@@H](CO)OC(O)[C@@H]4O)O[C@H](CO)[C@H]3O)O[C@H](CO)[C@H]2O)[C@H](O)[C@@H](O)[C@@H]1O (stereo partly shown) | Bacteroides uniformis | binding, ITC |  | pH 7.0, 25 °C, distal domain |  | -TΔS | 6.64 kcal/mol
COc1cccc(C(=O)C#Cc2ccc(O)c(OC)c2)c1 | Pseudomonas aeruginosa | RT-qPCR, item: rhlA | biofilm cells | 10 µM, 24 h | baseline: untreated | mRNA level | 46%
CC1CS(=O)(=O)CCN1/N=C/c1ccc([N+](=O)[O-])o1 (stereo not shown) | Trypanosoma cruzi | trypomastigote release | CHO | 5 µM |  | inhibition | 82%
COC(=O)c1c(NC(=O)Cn2cnc([N+](=O)[O-])n2)sc2c1CCC(C)C2 (stereo not shown) | Trypanosoma cruzi | reporter translation, Renilla luciferase mRNA translation | cell-free extract | 40 µM | baseline: DMSO | inhibition | -4.1%
N=C(N)c1ccc(OCc2ccc(-c3ccccc3)cc2COc2ccc(C(=N)N)cc2)cc1 | Escherichia coli | checkerboard | mcr-2 polymyxin-resistant | concentration not given, 20 h, added: rifampicin |  | MIC of compound in combination | 1.56 µg/mL
CC(NC(=O)C(C#N)=Cc1ccc(-c2ccccc2)cc1)c1ccccc1 (stereo not shown) | UCHL1 | covalent, intact protein LC-MS |  | 12.5 µM |  | labelling | 27.2%
OC[C@H]1O[C@@H](O[C@@H]2[C@@H](O)[C@H](O[C@H]3[C@H](O)[C@@H](CO)OC(O)[C@@H]3O)O[C@H](CO)[C@H]2O)[C@H](O)[C@@H](O)[C@@H]1O (stereo partly shown) | Bacteroides uniformis | binding, ITC |  | pH 7.0, 25 °C, distal domain |  | ΔG | -24.7 kcal/mol
CC[C@H]1CN2CCc3cc(OC)c(OC)cc3[C@@H]2C[C@@H]1C[C@H]1NCCc2cc(OC)c(OC)cc21 | Toxoplasma gondii | parasite growth, luciferase reporter | HFF, tachyzoite | 72 h |  | EC50 | 0.031 µM
Cc1c2c(nn1C)CSCc1cc(n(C)n1)CSc1cc(c3ccccc3c1)OCCCc1c(C(=O)O)n(C)c3c-2c(Cl)ccc13 | Staphylococcus aureus | broth microdilution | clinical isolates |  |  | MIC90 | 12.5 µM
CCCC(=O)OCSc1ccccc1C(=O)NCCOc1ccnc2ccc(C)cc12 | HIV-1 | virus-induced cytopathic effect, inhibitor, XTT | CEM-SS, RF | 6 days |  | EC50 | 4.41 ± 3.41 µM
COc1cccc(C(O)C#Cc2ccc(O)c(OC)c2)c1 (stereo not shown) | Pseudomonas aeruginosa | static biofilm | PA14 | 10 µM, 24 h | baseline: DMSO | biofilm formation | 62%
C=C1C(=O)O[C@H]2[C@H]1CC/C(C)=C/CC[C@@]1(C)O[C@@H]21 | Toxoplasma gondii | parasite growth | HFF, bradyzoite, glutamine-induced |  |  | EC90 | 1190 µM
CC(=O)N1CCC(C(=O)N2CCN3C(=O)c4cc(-c5ccccc5)ccc4NC(=O)C3C2)CC1 (stereo not shown) | Caenorhabditis elegans |  | N2 | 3.125 µM |  | median lifespan | 17 days
Oc1ccc(-c2nc(-c3ccc(OC4CCCC4)cc3)no2)cc1 | Clostridioides difficile |  | ATCC 43255 | 45 µM, spores |  | activity | active
OC[C@H]1O[C@@H](O[C@@H]2[C@@H](O)[C@H](O[C@@H]3[C@@H](O)[C@H](O[C@@H]4[C@@H](O)[C@H](O[C@H]5[C@H](O)[C@@H](CO)OC(O)[C@@H]5O)O[C@H](CO)[C@H]4O)O[C@H](CO)[C@H]3O)O[C@H](CO)[C@H]2O)[C@H](O)[C@@H](O)[C@@H]1O (stereo partly shown) | Bacteroides uniformis | binding, ITC |  | pH 7.0, 25 °C, distal domain |  | -TΔS | 22.9 kcal/mol
O=[N+]([O-])c1ccc(-c2nc(-c3ccc(OC4CCCC4)cc3)no2)cc1 | Clostridioides difficile | spore germination | ATCC 43255 | 45 µM |  | activity | inactive
O=C(Nc1ccncc1)c1cc([N+](=O)[O-])ccc1Cl | Toxoplasma gondii | parasite growth, luciferase reporter | HFF, tachyzoite | 72 h |  | EC90 | 1.68 µM
OC(Cn1cncn1)(Cn1cncn1)c1ccc(F)cc1F | Nakaseomyces glabratus |  | RPMI 1640 | 24 h, 35 °C |  | MIC | 50 µM (≈ 15.3 µg/mL)
N#Cc1cc(-c2nc3ccccc3s2)c(=O)n(NS(=O)(=O)c2ccccc2)c1N | human adenovirus 7 | viral replication, plaque | HEp-2 | non-toxic dose, mean of three titres |  | plaque reduction | 50%

Structure (SMILES) | tested on | assay | system | conditions | scale | quantity | value
CC(=O)NC[C@H]1CN(c2ccc(N3CCOCC3)c(F)c2)C(=O)O1 | Streptococcus pneumoniae | broth microdilution | penicillin-resistant isolates |  |  | MIC90 | 0.5 µg/mL
CCCC(=O)OCSc1ccccc1C(=O)NCCn1cc(C(=O)NCc2cccnc2)c(=O)c2cc3c(cc21)OCO3 | HIV-1 | virus-induced cytopathic effect, inhibitor, XTT | CEM-SS, RF | 6 days |  | EC50 | 1.51 ± 0.54 µM
CCCCCCCCCCCC1NCCc2cc(O)c(O)cc21 (stereo not shown) | Proteus vulgaris |  | CPCC 160013 | 40 µg per disc, 24 h, 37 °C |  | inhibition zone diameter | 11.4 mm
COc1cc(C#CC(=O)c2ccccc2Cl)ccc1O | Pseudomonas aeruginosa | static biofilm | PA14 | 10 µM, 24 h | baseline: DMSO | biofilm formation | 76%
Nc1nc(-c2ccccc2)nc2[nH]nc(Nc3ccc(C(F)(F)F)cc3)c12 | coxsackievirus B3 |  | NMRI mouse, CVB3 chronic myocarditis | oral, 100 mg/kg twice daily, day 3-10, day 0 | direction not given | clinical score | 0
COc1ccc2cc(C=C(C#N)C(=O)Nc3nccs3)ccc2c1 | UCHL1 | covalent, intact protein LC-MS |  | 12.5 µM |  | labelling | 16.7%
Fc1ccccc1N/N=C/c1ccc(-c2cccc(/C=N/Nc3ccccc3F)c2)cc1 | Nakaseomyces glabratus |  | ATCC 2001 |  | baseline: mammalian CC50 over MIC | selectivity index | < 0.5
OC[C@H]1O[C@@H](O[C@@H]2[C@@H](O)[C@H](O[C@@H]3[C@@H](O)[C@H](O[C@@H]4[C@@H](O)[C@H](O[C@@H]5[C@@H](O)[C@H](O[C@H]6[C@H](O)[C@@H](CO)OC(O)[C@@H]6O)O[C@H](CO)[C@H]5O)O[C@H](CO)[C@H]4O)O[C@H](CO)[C@H]3O)O[C@H](CO)[C@H]2O)[C@H](O)[C@@H](O)[C@@H]1O (stereo partly shown) | Bacteroides uniformis | binding, ITC |  | pH 7.0, 25 °C, middle domain |  | ΔH | -48.8 kcal/mol
CC(C)(C)c1cc(/C=C(\C#N)C(N)=S)cc(C(C)(C)C)c1O | Toxoplasma gondii | parasite growth, luciferase reporter | HFF, tachyzoite | 72 h |  | EC90 | 16.3 µM
O=C(C#Cc1ccc(F)c(F)c1)c1ccccc1Cl | Pseudomonas aeruginosa | RT-qPCR, item: lasB | biofilm cells | 10 µM, 24 h | baseline: untreated | mRNA level | 28%
CC(=Nc1ccc(N=Cc2cnccn2)cc1)N(C)C | Necator americanus |  | infected hamsters | oral, 25 mg/kg single dose, 49 days post infection |  | worm burden reduction | 100%
Cc1cccc(C(=O)C#Cc2ccc(F)c(F)c2)c1 | Pseudomonas aeruginosa | static biofilm | PA14 | 10 µM, 24 h | baseline: DMSO | biofilm formation | 64%
O=C(O[C@]12C[C@H]3C[C@H](C[C@H](C3)C1)C2)c1ccc(NCc2cc(O)ccc2O)cc1 | Toxoplasma gondii | parasite growth, luciferase reporter | HFF, tachyzoite | 72 h |  | EC50 | 6.57 µM
Cc1cc(Nc2ccc(S(F)(F)(F)(F)F)cc2)n2nc(C(C)(F)F)nc2n1 | Plasmodium falciparum |  | human |  |  | time to parasitaemia nadir, lower bound | 54 h
CCNCc1nc2c(N)nc3ccccc3c2n1CC(C)(C)O | Toxoplasma gondii | parasite growth | HFF, bradyzoite, alkaline-induced |  |  | EC90 | 107 µM
CCc1nc(N)nc(N)c1-c1ccc(Cl)cc1 | Toxoplasma gondii | [3H]uracil incorporation | human fibroblasts, RH wild type | 50 µM |  | parasite survival | 23.2%
OC[C@H]1O[C@@H](Oc2cc3c(O)cc(O)cc3[o+]c2-c2ccc(O)c(O)c2)[C@H](O)[C@@H](O)[C@@H]1O | HIV-1 | viral infection | TZM-bl, BaL (CCR5-tropic) | 48 h |  | IC50 | > 100 µM
COc1ccc(Nc2cnnc3cc(-c4cnc(N5CCCN(C)CC5)nc4)ccc23)nc1 | Leishmania donovani |  | B10R cells |  |  | EC50 | > 10 µM
CCN(CC)CCCC(C)Nc1ccnc2cc(Cl)ccc12 (stereo not shown) | hepatitis E virus | viral replication, Renilla luciferase replicon | S10-3 replicon, genotype 1 | 0.06 µM, 48 h |  | inhibition | 23.1%
COc1cccc(C(=O)C#Cc2ccc(F)c(F)c2)c1 | Pseudomonas aeruginosa | static biofilm | PA14 | 10 µM, 24 h | baseline: DMSO | biofilm formation | 83%
CCc1nc(N)nc(N)c1-c1ccc(Cl)cc1 | Toxoplasma gondii |  | ME49, lethally infected mice | intraperitoneal, 5 mg/kg daily for 10 days |  | cured animals | 90 to 100%
[H]/N=C(/NCCCCC)N/N=C/c1c[nH]c2ccc(OC)cc12 | Toxoplasma gondii | parasite growth | HFF, bradyzoite, glutamine-induced |  |  | EC90 | 20.8 µM
COc1cc(C#CC(=O)c2cccc(Cl)c2)ccc1O | Pseudomonas aeruginosa | static biofilm | PA14 | 10 µM, 24 h, static | baseline: DMSO | biofilm formation | 67%

Some of these lines once more:
Structure (SMILES) | tested on | assay | system | conditions | scale | quantity | value
COc1ccc2cc(C=C(C#N)C(=O)Nc3nccs3)ccc2c1 | UCHL1 | covalent, intact protein LC-MS |  | 12.5 µM |  | labelling | 16.7%
Fc1ccccc1N/N=C/c1ccc(-c2cccc(/C=N/Nc3ccccc3F)c2)cc1 | Nakaseomyces glabratus |  | ATCC 2001 |  | baseline: mammalian CC50 over MIC | selectivity index | < 0.5
OC[C@H]1O[C@@H](O[C@@H]2[C@@H](O)[C@H](O[C@@H]3[C@@H](O)[C@H](O[C@@H]4[C@@H](O)[C@H](O[C@@H]5[C@@H](O)[C@H](O[C@H]6[C@H](O)[C@@H](CO)OC(O)[C@@H]6O)O[C@H](CO)[C@H]5O)O[C@H](CO)[C@H]4O)O[C@H](CO)[C@H]3O)O[C@H](CO)[C@H]2O)[C@H](O)[C@@H](O)[C@@H]1O (stereo partly shown) | Bacteroides uniformis | binding, ITC |  | pH 7.0, 25 °C, middle domain |  | ΔH | -48.8 kcal/mol
CC(C)(C)c1cc(/C=C(\C#N)C(N)=S)cc(C(C)(C)C)c1O | Toxoplasma gondii | parasite growth, luciferase reporter | HFF, tachyzoite | 72 h |  | EC90 | 16.3 µM
